Results pooled from the literature.
± gives the spread as reported.

`CCC(C)(C)c1cc(-n2nc3ccccc3n2)c(O)c(C(C)(C)CC)c1` has an absorption factor of 94.5 %/36 h (reconstructed human epidermis EpiSkin).
Under “serious TEAE incidence”, `COc1ccc(-c2c(-c3ccc(C#N)c(F)c3)nc(N3CCC(N)CC3)n(C)c2=O)cc1F` is recorded as 0% (measured: wound infection; human patients; oral, 60 mg, dose expansion).
`O=S(=O)(Nc1ccccc1)c1ccc(NC(=S)Nc2ccccc2)cc1`: “blood chemistry level” 177 mg/dL (measured: TRIG; female mouse, blood; oral, 5 mg/kg daily, 14 days).
For `CC[C@H](C)[C@H](NC(=O)[C@H](Cc1ccccc1)NC(=O)[C@H](CCC(=O)O)NC(=O)[C@H](CCCNC(=N)N)NC(=O)[C@H](C)NC(=O)[C@H](C)NC(=O)[C@H](CCC(N)=O)NC(=O)[C@H](CCC(=O)O)NC(=O)[C@H](CCC(=O)O)NC(=O)[C@H](CC(C)C)NC(=O)[C@H](Cc1ccc(O)cc1)NC(=O)[C@H](CO)NC(=O)[C@H](CO)NC(=O)[C@@H](NC(=O)[C@H](CC(=O)O)NC(=O)[C@H](CO)NC(=O)[C@@H](NC(=O)[C@H](Cc1ccccc1)NC(=O)[C@@H](NC(=O)CNC(=O)[C@H](CCC(=O)O)NC(=O)[C@H](C)NC(=O)CCc1cnc[nH]1)[C@@H](C)O)[C@@H](C)O)C(C)C)C(=O)N[C@@H](C)C(=O)N[C@@H](Cc1c[nH]c2ccccc12)C(=O)N[C@@H](CC(C)C)C(=O)N[C@H](C(=O)N[C@@H](CCCNC(=N)N)C(=O)NCC(=O)N[C@@H](CCCNC(=N)N)C(=O)N[C@@H](CCCCNC(=O)COCCOCCNC(=O)COCCOCCNC(=O)CC[C@H](NC(=O)CCCCCCCCCCCCCCCCC(=O)O)C(=O)O)C(=O)NCC(=O)NCC(=O)N[C@@H](CO)C(=O)N[C@@H](CCSC)C(=O)N[C@H](C(=O)N[C@@H](CCCCNc1c(NCCCCCN(O)C(=O)CCC(=O)NCCCCCN(O)C(=O)CCC(=O)NCCCCCN(O)C(C)=O)c(=O)c1=O)C(=O)O)C(C)C)C(C)C` [zirconium-89 labelled], the tissue uptake was 2.11 %ID/g (ex vivo gamma counting; male Sprague-Dawley rats, liver; intravenous, 1 nmol, 24 h, mean of 3 animals).
`O.O.O.O.O.O.[Cl-].[Cl-].[Co+2]`: “cobalt in faeces” 41.1 µg/g (rat male, faeces; oral gavage, 10 mg/kg single, day 1, pooled samples; reference: vehicle control subtracted).
`O=C1Nc2cc3[nH]nc(-c4ccncc4)c3cc2CN1Cc1ccccc1` — result for “patients with cough”: 20% (CTCAE v4.03; advanced solid tumour patients; intravenous, 7.2 mg/kg, schedules 1/2).
`Cn1c(-c2ccc(C(N)=O)cc2F)nnc1C(C)(C)Oc1c(F)cc(Cl)cc1F`: “medical device site reaction TEAE” 0% (human; oral, 30 mg, single ascending dose).
`CN1CC[C@@H](c2c(O)cc(O)c3c(=O)cc(-c4ccc(C(F)(F)F)cc4Cl)oc23)[C@@H]1CO` — result for “patients with adverse event”: 10% (measured: Neutropenia; relapsed or refractory haematological malignancies; oral, dose not given, all arms).
`C[C@H]1CN(C(=O)CC#N)[C@]12CCN(c1ncnc3[nH]ccc13)C2` — result for “Cmax at NOAEL”: 5 ng/mL (minipig, female; dermal, 20 mg/kg repeated, 9 months).
For `C[C@@H]1NC(=O)[C@H](CCCCNC(=O)CO/N=C/C(=O)NCCCC[C@@H]2NC(=O)[C@@H](Cc3ccccc3)NC(=O)[C@H](CC(=O)O)NC(=O)CNC(=O)[C@H](CCCNC(=N)N)NC2=O)NC(=O)CNC(=O)[C@@H]2CCCN2C(=O)[C@H](CCCCNC(=O)CO/N=C/C(=O)NCCCC[C@@H]2NC(=O)[C@@H](Cc3ccccc3)NC(=O)[C@H](CC(=O)O)NC(=O)CNC(=O)[C@H](CCCNC(=N)N)NC2=O)NC(=O)[C@H](CCCCNC(=O)CCNC(=O)CCNC(=O)CCNC(=O)[C@H](CCCCN)NC(=O)[C@H](Cc2ccccc2)NC(=O)CNC(=O)CN2CCCNCCNCCCNCC2)NC(=O)[C@H](CCCCNC(=O)CO/N=C/C(=O)NCCCC[C@@H]2NC(=O)[C@@H](Cc3ccccc3)NC(=O)[C@H](CC(=O)O)NC(=O)CNC(=O)[C@H](CCCNC(=N)N)NC2=O)NC(=O)CNC(=O)[C@@H]2CCCN2C(=O)[C@H](CCCCNC(=O)CO/N=C/C(=O)NCCCC[C@@H]2NC(=O)[C@@H](Cc3ccccc3)NC(=O)[C@H](CC(=O)O)NC(=O)CNC(=O)[C@H](CCCNC(=N)N)NC2=O)NC1=O` [copper-64 labelled], the tissue uptake was 1.81 ± 0.29 %ID/g (PET imaging; mouse, U-87 MG tumour xenograft, tumor; intravenous, 24 h).
For `CCc1ccc(CC/C=C/c2ccc3c(c2)C(=O)CC3)cc1`, the Lymphocyte percentage was 79.6% (Sprague-Dawley rat, male; oral, 120 mg/kg/day, 14 days).
Under “concentration at 24 h”, `O=C(NCCN1CCCC1)c1cc(-c2ccc(CN3CCOCC3)cc2)nc2ccc(F)cc12` is recorded as 0.096 µM (NMRI mouse Plasmodium berghei-infected, blood; oral, 1.5 mg/kg, 24 h, monotherapy).
For `COc1cc2c(Oc3ccc4[nH]c(C)cc4c3F)ccnc2cc1OCC1(N)CC1`, the Rash incidence was 0% (paediatric recurrent refractory sarcoma; 8 mg).

Some of these lines once more:
Under “serious TEAE incidence”, `COc1ccc(-c2c(-c3ccc(C#N)c(F)c3)nc(N3CCC(N)CC3)n(C)c2=O)cc1F` is recorded as 0% (measured: wound infection; human patients; oral, 60 mg, dose expansion).
For `CCc1ccc(CC/C=C/c2ccc3c(c2)C(=O)CC3)cc1`, the Lymphocyte percentage was 79.6% (Sprague-Dawley rat, male; oral, 120 mg/kg/day, 14 days).
